# Measured values of several laboratories.
# Compare with care: the assays were run in different laboratories. “And” joins repeats or separate records; there may be more than shown. ± marks the error that the study gave.
SMILES,test,system,conditions,scale,measurement,value
COc1ccc(-c2cncc(N[C@@H](C)c3cccc(NC(=O)c4cncc(C)c4)c3)n2)cc1OC,measured: rno-miR-374-5p,"rat SU5416/hypoxia model, lung",dose not given,relative to: SU5416/hypoxia vehicle,fold change,0.803
COc1ccccc1[C@H](Cn1c(=O)n(C(C)(C)C(=O)O)c(=O)c2c(C)c(-c3ncco3)sc21)OC1CCOCC1,"[1-13C]acetate infusion, isotopomer analysis","overweight or obese healthy men, plasma VLDL-TG palmitate","oral, 200 mg single dose, 6 h post-dose, together with: oral fructose",,fractional hepatic DNL,5.05 % new palmitate
CCO[C@H]1CCN(Cc2c(OC)cc(C)c3[nH]ccc23)[C@H](c2ccc(C(=O)O)cc2)C1,,"PNH patients, blood","oral, 50 mg then 200 mg, week 12, mean percent change",relative to: baseline,PNH RBC clone size,643%
O=C(O)CCC(=O)O.[2H]C([2H])([2H])Oc1cc(C)c2[nH]ccc2c1CN1CC[C@@H](C2CC2)C[C@H]1c1ccc(C(=O)O)cc1,"alternative complement pathway activity, Wieslab ELISA","healthy humans, most subjects, serum","50 mg twice daily, trough, multiple doses",,inhibition,> 80%
COc1cc(O)c(CC=C(C)C)c(O)c1C(=O)/C=C/c1ccc(O)cc1,,"male Tac:SW mice, conventional and germ-free","in high-fat diet, dose not given, 10 weeks",relative to: high-fat diet alone,"fat pad weight, % body weight",no effect
O=c1c(NCCc2cccc(Cl)c2)c(Nc2ccc(Cl)cc2)c1=O,cue-induced reinstatement after extinction,"rat, cocaine self-administration","i.p., 5.6 mg/kg",,inactive lever presses,no effect
N#Cc1ccn2c(-c3ccncc3)c(-c3ccc(F)cc3)nc2c1,"kinase binding, competitor, MIB/MS competition, measured: AKL1",Candida albicans cell lysate,10 µM,relative to: DMSO,log2 fold change,-0.438
C=CCn1c(=O)c2cnc(Nc3ccc(N4CCN(C)CC4)cc3)nc2n1-c1ccc2c(n1)[C@@](O)(CC)CC2,,"T47D xenograft, BALB/c nude mice","oral, 80 mg/kg once daily x 28, day 27",,tumour volume difference,184 ± 5.9 mm3
Cc1n[nH]c2ccc(-c3cc(OC[C@@H](N)Cc4ccccc4)cnc3-c3ccoc3)cc12,"kinase binding, competitor, MIB/MS competition, measured: YCK2",Candida albicans cell lysate,100 nM,relative to: DMSO,log2 fold change,-0.488
CC(=O)Oc1cc2c(s1)CCN(C(C(=O)C1CC1)c1ccccc1F)C2 (stereo not shown),light transmittance aggregometry,"human patients, platelet-rich plasma","dose not given, 15 min, together with: ADP 20 µM",relative to: patients,patients with IPA above 90%,0%
O=C(O)CNC(=O)Cc1ccccc1,,"ventricular cardiomyocytes, C57BL/6 mouse","dose not given, 0.436 s",,sarcomere length,1.72 µm
CC(C)(C)c1sc2ncnc(Oc3c(F)cccc3OC(F)(F)F)c2c1-c1ccc(Cl)cc1,heat hyperalgesia,"humanized MrgprX1 mice, CCI",oral,,Hill slope,1.31
Cc1cnc(N2CC3(CCOCC3)C2)c(C(=O)Nc2ccc(C(=O)N3CCc4cc(C(=O)Nc5c(C)cccc5F)sc4-c4ccccc43)cc2)c1,,"human, RSV infection, nasal wash","dose not given, ITT-I population",relative to: placebo,inhibition of CXCL8 AUC,31%
Cn1cc([C@H]2C[C@H]3CSC(N)=N[C@@]3(c3ccc(F)cc3F)CO2)cn1,measured: Aβx-42,"Mus musculus wild-type, brain","subcutaneous, 10 mg/kg, 3 h",,Aβ42 level,0.44 ng/g
COc1ccc(C2=N[C@@H](c3ccc(Cl)cc3)[C@@H](c3ccc(Cl)cc3)N2C(=O)N2CCNC(=O)C2)c(OC(C)C)c1,histology,"Dmd C3333Y mice, quadriceps",dose not given,,necrotic area,16.2% and 23.7% and 20.3% and 18.5% and 22.4%
CC[C@H](C)[C@H](NC(=O)[C@H](C)NC(=O)CNC(=O)[C@H](Cc1ccccc1)NC(=O)[C@H](CC(N)=O)NC(=O)[C@H](CC(N)=O)NC(=O)[C@H](CO)NC(=O)[C@H](CO)NC(=O)[C@H](Cc1c[nH]cn1)NC(=O)[C@@H](NC(=O)[C@H](CC(C)C)NC(=O)[C@H](Cc1ccccc1)NC(=O)[C@H](CC(N)=O)NC(=O)[C@H](C)NC(=O)[C@H](CC(C)C)NC(=O)[C@H](CCCNC(=N)N)NC(=O)[C@H](CCC(N)=O)NC(=O)[C@@H](NC(=O)[C@H](C)NC(=O)[C@@H]1CSSC[C@H](NC(=O)[C@@H](N)CCCCN)C(=O)N[C@@H](CC(N)=O)C(=O)N[C@@H]([C@@H](C)O)C(=O)N[C@@H](C)C(=O)N[C@@H]([C@@H](C)O)C(=O)N1)[C@@H](C)O)C(C)C)C(=O)N[C@@H](CC(C)C)C(=O)N[C@@H](CO)C(=O)N[C@@H](CO)C(=O)N[C@H](C(=O)N[C@@H](CC(N)=O)C(=O)N[C@H](C(=O)NCC(=O)N[C@@H](CO)C(=O)N[C@@H](CC(N)=O)C(=O)N[C@H](C(=O)N[C@@H](Cc1ccc(O)cc1)C(N)=O)[C@@H](C)O)C(C)C)[C@@H](C)O,,isolated mouse islets,"10 µM, 24 h, together with: 16.7 mM glucose (high)",relative to: control,insulin secretion,~7.2%
C[C@]12CC[C@@H]3c4ccc(O)cc4CC[C@H]3[C@@H]1CC[C@@H]2O,"RT-qPCR, measured: CO",Arabidopsis thaliana ING1:FLAG seedlings,"20 µM, 4 h after treatment, replicate rep3, unit not given",relative to: TUB2,mRNA level,0.051
Cc1ccc([C@@H]2O[C@H](CO)[C@@H](O)[C@H](O)[C@H]2O)cc1Cc1ccc(-c2ccc(F)cc2)s1,,Japanese type 2 diabetes patients,"25 mg, day 2",relative to: day 1,change in fasting plasma glucose,-8 mg/dL
N=C(N)NCCC[C@H](NC(=O)[C@H](CCCNC(=N)N)NC(=O)[C@H](CCCCN)NC(=O)[C@H](CCC(N)=O)NC(=O)[C@H](CCCCN)NC(=O)[C@H](Cc1ccc(O)cc1)NC(=O)[C@@H](N)CCCCN)C(=O)N[C@@H](CO)C(=O)N[C@@H](Cc1ccc(O)cc1)C(=O)N[C@@H](CCCCN)C(=O)O,,dentin hypersensitivity patients,"5 µg/tooth single, day 22, unit not given",relative to: baseline,tactile threshold change,-1 ± 0.89
C[C@H]1C[C@H]2CSC(N)=N[C@@]2(c2nc(NC(=O)c3ccc(OC(F)F)cn3)cs2)CO1,measured: Aβx-40,"healthy adults, plasma","15 mg once daily, day 4",relative to: placebo,percent change from baseline,-50.4%
N#Cc1ccc2c(c1)[C@H]1CCCN(C(=O)c3ccc4[nH]cnc4c3)[C@H]1C2,meal tolerance test,"human, Phase II trial","80 mg once daily, day 28, AUC0-2 h, adjusted mean",relative to: baseline,glucose AUC change,1.42 mmol/h/L
CN[C@@H]1COc2c(S(=O)(=O)NC(=O)Nc3c4c(cc5c3CCC5)CCC4)cnn2C1,measured: IL-1β,"human participants, whole blood ex vivo","900 mg single dose, 8 h, together with: LPS/ATP",relative to: baseline,inhibition,99.4%
CCCn1cc(C)c2c(=O)[nH]c(-c3cc(S(=O)(=O)N4CCN(CC)CC4)ccc3OCC)nc21,,supine,"concentration not given, 0 to 4 h",relative to: baseline,maximum change in systolic blood pressure,-6.26 ± 5.16 mmHg
COc1ccc2c(c1)CC[C@@H]1[C@@H]2CC[C@]2(C)[C@@H](NCCCCCCN3C(=O)C=CC3=O)CC[C@@H]12,open field test,"humanized UT (+/h+) mice, SAH model",dose not given,,distance travelled,39 m and 12 m and 35 m and 23 m
CN(C(=O)n1cnc(-c2ccc[n+]([O-])c2)c1)C1CCCCC1,,"mice, brain","oral, 3 mg/kg, 4 h",,anandamide level,92 ± 5 pmol/g
CC[C@@H]1[C@H](F)C(=O)N[C@@H]1COc1nccc2cc(C(N)=O)c(OC)cc12,"ATP-site probe binding, ActivX profiling, measured: MST4, YSK1",THP-1 cell lysate,"0.2 mM, Lys2 site",,inhibition,-4.9%
[177Lu+3].[Cl-].[Cl-].[Cl-],"immunohistochemistry, measured: mature activated macrophages","BALB/c mice, 4T1 tumour","dose not given, 7 days, 4T1 tumour-bearing",,positive cells,4.86 ± 0.65%
COc1ncc(-c2nc3c(n2C(C)C)[C@H](c2ccc(Cl)cc2)N(c2cc(Cl)cn(C)c2=O)C3=O)c(OC)n1,International Working Group criteria,human acute myeloid leukemia patients,"oral, 45 mg, response TF, low-dose, recommended dose for expansion",,best overall response,59.3%
CCCCCN1C[C@H](O)[C@@H](O)[C@H](O)[C@@H]1CO,,"mouse Hexb-/-, liver",300 mg/kg/day,relative to: untreated Hexb-/- mice,number of decreased sphingolipids,35
COc1cc(/C=C/C(=O)CC(=O)/C=C/c2ccc(O)c(OC)c2)ccc1O,,high-fat diet hyperlipidaemic rat,"oral, 200 mg/kg daily, 4 weeks",,plasma LDL-C,1.47 ± 0.3 mmol/L
c1ccc(-c2n[nH]cc2-c2ccnc3ccccc23)nc1,"kinase binding, competitor, MIB/MS competition, measured: NPR1",Candida albicans cell lysate,100 nM,relative to: DMSO,log2 fold change,1.35
CCCCC1(CCCC)CN(c2ccccc2)c2cc(SC)c(OCC(=O)N[C@@H](C(=O)NCC(=O)O)c3ccccc3)cc2S(=O)(=O)C1,measured: 7α-hydroxy-4-cholesten-3-one,"human, plasma","2.5 mg once daily, day 9",,plasma C4,38.7 ng/mL
N#Cc1ccc2c(c1)[C@H]1CCCN(C(=O)c3ccc4[nH]cnc4c3)[C@H]1C2,,"human, plasma","160 mg, day 15, 360 h",relative to: placebo and baseline,change in fasting glucose,15%
NC(=O)c1cnc2[nH]ccc2c1N[C@@H]1[C@@H]2CC3C[C@H]1C[C@@](O)(C3)C2,"CD4+ naive T cells, flow cytometry","Japanese humans, peripheral blood",20 mg single dose,relative to: baseline,percent change,0.73%
O=C(O)C1=CC(=C(c2ccc(O)c(C(=O)O)c2)c2ccc(O)c(C(=O)O)c2)C=CC1=O,"immunohistochemistry, measured: Ly6G","C57BL/6J mouse MC-38 tumour, tumour necrotic areas","peritumoral, dose not given",relative to: vehicle,neutrophil signal,decreased
CC(C)NCC(O)c1ccc(O)c(O)c1 (stereo not shown),,"ventricular cardiomyocytes, C57BL/6 mouse","dose not given, 0.216 s",,sarcomere length,1.5 µm
Cc1sc2c(c1C)C(c1ccc(Cl)cc1)=N[C@@H](CC(=O)NCCCCCCCCNC(=O)COc1cccc3c1C(=O)N(C1CCC(=O)NC1=O)C3=O)c1nnc(C)n1-2 (stereo partly shown),flow cytometry,"4T1 tumour-bearing mice, lymph nodes",dose not given,,CD8+ T cells,15.5% and 17.2% and 17.4% and 14%
CO[C@H]1CC[C@H](N2C(=O)CNc3ncc(-c4ccc(C(C)(C)O)nc4)nc32)CC1,flow cytometry,"stimulated B cells, human, blood","60 mg single dose, 3 h, median",relative to: baseline,pS6RP change from baseline,-76.6%
O=C(COc1ccc(Cl)cc1)NC12CC(c3nnc([C@H]4C[C@@H](OC(F)(F)F)C4)o3)(C1)C2,,"healthy human, PBMC","45 mg once daily, day 14, 4 h post-dose, median, together with: sodium arsenite ex vivo",relative to: baseline,CHAC1 mRNA change,-54.9%
Cn1cc(Nc2nccc(-c3ccc4c(c3)CN(C3COC3)CC[C@H]4NC(=O)c3cn(C(C)(C)C)nn3)n2)cn1,measured: PTEN signalling,"mouse splenic B cells, mouse","30 mg/kg, IgD-activated B cells in vivo","relative to: vehicle, direction not given",pathway activation z-score,-1.07
OC(CCN1CCCCC1)(c1ccccc1)C1CC2C=CC1C2 (stereo not shown),resting-state EEG,healthy elderly humans,"oral, 2 mg, eyes closed, LS mean",,"beta power, EEG, Fz Cz",5.9 µV²
N#Cc1ccc2c(-c3ccncc3)c(-c3ccc(F)cc3)nn2c1,"kinase binding, competitor, MIB/MS competition, measured: SAK1",Candida albicans cell lysate,10 µM,relative to: DMSO,log2 fold change,-0.169
CCN(Cc1nc2c(N)nc3cc(-c4cc[nH]n4)ccc3c2[nH]1)C(C)=O,"immunohistochemistry, measured: PD-L1+ immune cells","patients with advanced solid tumours, non-injected tumour lesions","dose not given, monotherapy",relative to: baseline,mean fold change,5
CC1(C)CCC(CN2CCN(c3ccc(C(=O)NS(=O)(=O)c4ccc(NCC5CCOCC5)c([N+](=O)[O-])c4)c(Oc4cnc5[nH]ccc5c4)c3)CC2)=C(c2ccc(Cl)cc2)C1,cell killing,"canine lymph node CD21+ B cells, dog 33",24 h,,EC50,15.8 nM
C[C@@H](NC(=O)N1C(=O)[C@H](Cc2ccnc(N)c2)[C@H]1C(=O)O)C1CCCCC1,,human,"iv infusion, 0.3 mg/kg/h, 24 h",,time to aPTT Emax,84 h
NCC(=O)Nc1cncc(-c2nn3c(=O)cc(N4CCNCC4)nc3s2)c1,"ADP-induced platelet aggregation, light transmission aggregometry","human, stable CAD on aspirin, ex vivo platelets","subcutaneous, 0.05 mg/kg, 15 min post-dose, mean value, together with: ADP 20 µM",,inhibition,76.9%
O=C1Nc2cc3[nH]nc(-c4ccncc4)c3cc2CN1Cc1ccccc1,RECIST v1.1,"human, relapsed or refractory advanced solid tumours","intravenous, 4.8 mg/kg",,"complete response, best response",0%
COc1nc(-c2cc(C)c(N[C@@H](C)c3cc(F)cc(F)c3)nn2)ccc1-n1cnc(C)c1,measured: Aβ40,"rat Sprague-Dawley male, brain","oral, 50 mg/kg daily for 9 days, 4 h after dose",relative to: vehicle,change in level,78%
C[C@H](Oc1ccc(Br)cc1-c1ccon1)C(=O)O,muscle velocity recovery cycles,"human, tibialis anterior muscle","1200 mg single dose, 3.5 h post-dose, frequency ramp, first response at 15 Hz",,latency change,93.7%

# Excerpt of the above:
SMILES,test,system,conditions,scale,measurement,value
CCCCCN1C[C@H](O)[C@@H](O)[C@H](O)[C@@H]1CO,,"mouse Hexb-/-, liver",300 mg/kg/day,relative to: untreated Hexb-/- mice,number of decreased sphingolipids,35
COc1cc(/C=C/C(=O)CC(=O)/C=C/c2ccc(O)c(OC)c2)ccc1O,,high-fat diet hyperlipidaemic rat,"oral, 200 mg/kg daily, 4 weeks",,plasma LDL-C,1.47 ± 0.3 mmol/L
